Published values collected from several papers.
Each line is one published result; not all experiments were run side by side. “And” joins repeats or separate records; there may be more than shown. Numbers after ± are the reported error.

Under “normalised SPR binding response”, `GSGAGKETSF` is recorded as 97.5 normalised RU (human SCRIB PDZ3-4 tandem (MBP fusion); surface plasmon resonance; peptide; concentration not given; higher = stronger binding).
Under “fasting blood glucose”, `semaglutide` is recorded as 96 ± 3 mg/dL (DIO male Wistar rats; dose not given, 2 weeks).
`heparin sodium`: “maximum prothrombin time (Emax)” 13.9 s (healthy Chinese adult volunteers, plasma; continuous intravenous infusion, 8 IU/kg/h, day 1 to 6 of 5-day infusion, mean).
`YEQDPWGVKWWY` — result for serum TNF-alpha: “decreased” (peptide, mouse, CP model, serum; 0.154 µmol/kg, 4 weeks).
With `human delta-aminolevulinic acid dehydratase` the co-IP enrichment was 22600 (co-immunoprecipitation; human RBC cytosol; DSSO crosslinker, unit not given, with: Band 3 peptide 1-56 bait; reference: negative control).
`Pam2CSK4`: “Thioflavin S plaque level” 0.817 and 0.783 (APP/PS1 mouse, cortex; local injection, dose not given, unit not given; reference: injected over adjacent side).
`QSARYRDTEL` has a binding intensity of 0.686 (human SCRIB PDZ3-4 tandem (MBP fusion); automated holdup; peptide, purified PDZ protein; concentration not given, unit not given; reference: biotin control resin, higher = stronger binding).
`colistin` has an MIC of ≤ 0.5 µg/mL (Escherichia coli; broth microdilution; clinical isolate RKI-No_95/15).
Under “PGIC no change”, `difelikefalin` is recorded as 10.2% (Japanese haemodialysis patients with pruritus; intravenous, 0.5 µg/kg, 8 weeks).
`calcium`: “desensitization time constant” 17.6 s and 10.9 s and 36.8 s and 19.4 s (ion current, two-electrode voltage clamp; Xenopus oocytes; 1.8 mM, 80 mV, with: niflumic acid present).
For `UBE2I`, the co-IP enrichment was 0 (co-immunoprecipitation; human RBC cytosol; no crosslinker, unit not given, with: Band 3 peptide 1-56 bait; reference: negative control).
`cotadutide` has a metabolite level of 0.96 ± 0.04 scaled intensity (lipidomics, measured: hepatic total Sphingomyelins; ob/ob mice on AMLN diet, NASH model, liver; dose not given).
The co-IP enrichment of `CCT3` is reported as 0 (co-immunoprecipitation; human RBC membrane; unit not given, with: Band 3 peptide 1-56 bait; reference: negative control).
Under “height gain in first year of therapy”, `somatropin` is recorded as 6 cm (children with severe GH deficiency, short stature; dose not given, GHR mutation patients).
The co-IP enrichment of `CCT6A` is reported as 235 (co-immunoprecipitation; human RBC membrane; DSSO crosslinker, unit not given, with: Band 3 peptide 1-56 bait; reference: negative control).
With `maraviroc` the Aβ40 level was 205 ± 54.2 pg/mL (ELISA; HIV-infected mice, plasma; i.p., 120 mg/kg twice daily, 3 weeks post infection).
